Measurements gathered from unrelated publications.
Compare with care: the assays were run in different laboratories. ± marks the error that the study gave.

SMILES | assay | test system | conditions | endpoint | result
CCCCCC(=O)N[C@H]1CSCc2cc(CSCCNC(=O)CCCCCNC(=O)CC[C@H](NC(=O)CCC(C(=O)O)N3CCN(CC(=O)O)CCN(CC(=O)O)CCN(CC(=O)O)CC3)C(=O)NCCCOc3ccc4nccc(C(=O)NCC(=O)N5CC(F)(F)C[C@H]5C#N)c4c3)cc(c2)CSC[C@@H](C(=O)O)NC(=O)[C@H](Cc2ccccc2)NC(=O)[C@H](CCC(N)=O)NC(=O)[C@H]([C@@H](C)O)NC(=O)[C@@H]2CCCN2C(=O)[C@@H]2CCCN2C1=O (stereo partly drawn) | – | PBS | 2 h, 37 °C | radiochemical purity | > 95%
N=C(N)NCCC[C@@H]1NC(=O)[C@H](CCCCNC(=O)CNC(=O)CNC(=O)CNC(=O)CC[C@H](NC(=O)CNC(=O)CNC(=O)CNC(=O)CC[C@H](NC(=O)CN2CCN(CC(=O)O)CCN(CC(=O)O)CCN(CC(=O)O)CC2)C(=O)NCC(=O)NCC(=O)NCC(=O)N[C@@H](CCC(=O)NCC(=O)NCC(=O)NCC(=O)NCCCC[C@@H]2NC(=O)[C@@H](Cc3ccccc3)NC(=O)[C@H](CC(=O)O)NC(=O)CNC(=O)[C@H](CCCNC(=N)N)NC2=O)C(=O)NCC(=O)NCC(=O)NCC(=O)NCCCC[C@@H]2NC(=O)[C@@H](Cc3ccccc3)NC(=O)[C@H](CC(=O)O)NC(=O)CNC(=O)[C@H](CCCNC(=N)N)NC2=O)C(=O)NCC(=O)NCC(=O)NCC(=O)NCCCC[C@@H]2NC(=O)[C@@H](Cc3ccccc3)NC(=O)[C@H](CC(=O)O)NC(=O)CNC(=O)[C@H](CCCNC(=N)N)NC2=O)NC(=O)[C@@H](Cc2ccccc2)NC(=O)[C@H](CC(=O)O)NC(=O)CNC1=O [indium-111 labelled] | – | female athymic nu/nu mice, heart | intravenous, 24 h | tissue uptake | 0.8 ± 0.22 %ID/g
CCCC[C@H](NC(=O)CNC(=O)CNC(=O)CN1CCN(CC(=O)O)CCN(CC(=O)O)CCN(CC(=O)O)CC1)C(=O)N[C@H]1CC(=O)NCCCC[C@@H](C(N)=O)NC(=O)[C@H](Cc2c[nH]c3ccccc23)NC(=O)[C@H](CCCNC(=N)N)NC(=O)[C@@H](Cc2ccccc2)NC(=O)[C@H](Cc2c[nH]cn2)NC1=O [lutetium-177 labelled] | – | C57 mouse, female, liver | intravenous, 0.037 MBq, 24 h | tissue uptake | 0.53 ± 0.08 %ID/g
N=C(N)NCCC[C@@H]1NC(=O)[C@H](CCCCNC(=O)CNC(=O)CNC(=O)CNC(=O)CC[C@H](NC(=O)CNC(=O)CNC(=O)CNC(=O)CN2CCN(CC(=O)O)CCN(CC(=O)O)CCN(CC(=O)O)CC2)C(=O)NCC(=O)NCC(=O)NCC(=O)NCCCC[C@@H]2NC(=O)[C@@H](Cc3ccccc3)NC(=O)[C@H](CC(=O)O)NC(=O)CNC(=O)[C@H](CCCNC(=N)N)NC2=O)NC(=O)[C@@H](Cc2ccccc2)NC(=O)[C@H](CC(=O)O)NC(=O)CNC1=O [indium-111 labelled] | – | female athymic nu/nu mice, kidney | intravenous, 0.5 h | tissue uptake | 6.74 ± 0.79 %ID/g
COc1ccc2cc([C@H](C)C(=O)N[C@H](Cc3ccccc3)C(=O)N[C@H](Cc3ccccc3)C(=O)N[C@H](Cc3ccc(O)cc3)C(=O)O)ccc2c1 | TEM | hydrogel 0.8 wt% | – | nanofiber width | 7 ± 2 nm
N=C(N)NCCC[C@@H]1NC(=O)[C@H](CCCCNC(=O)CC[C@H](NC(=O)CC[C@H](NC(=O)CN2CCN(CC(=O)O)CCN(CC(=O)O)CCN(CC(=O)O)CC2)C(=O)N[C@@H](CCC(=O)NCCCC[C@@H]2NC(=O)[C@@H](Cc3ccccc3)NC(=O)[C@H](CC(=O)O)NC(=O)CNC(=O)[C@H](CCCNC(=N)N)NC2=O)C(=O)NCCCC[C@@H]2NC(=O)[C@@H](Cc3ccccc3)NC(=O)[C@H](CC(=O)O)NC(=O)CNC(=O)[C@H](CCCNC(=N)N)NC2=O)C(=O)NCCCC[C@@H]2NC(=O)[C@@H](Cc3ccccc3)NC(=O)[C@H](CC(=O)O)NC(=O)CNC(=O)[C@H](CCCNC(=N)N)NC2=O)NC(=O)[C@@H](Cc2ccccc2)NC(=O)[C@H](CC(=O)O)NC(=O)CNC1=O [indium-111 labelled] | – | female athymic nu/nu mice, kidney | intravenous, 0.5 h | tissue uptake | 11.2 ± 1.22 %ID/g
Cc1cc(-c2ccc(NC(=O)[C@H](CCCCNC(=O)CCOCCOCCC(=O)N[C@H](Cc3ccccc3)C(=O)N[C@H]3CSSC[C@@H](C(=O)N[C@H](C(=O)O)[C@@H](C)O)NC(=O)[C@H]([C@@H](C)O)NC(=O)[C@H](CCCCN)NC(=O)[C@@H](Cc4c[nH]c5ccccc45)NC(=O)[C@H](Cc4ccc(O)cc4)NC3=O)NC(=O)CN3CCN(CC(=O)O)CCN(CC(=O)O)CCN(CC(=O)O)CC3)c(C)c2)ccc1N=Nc1ccc2c(S(=O)(=O)O)cc(S(=O)(=O)O)c(N)c2c1O [lutetium-177 labelled] | – | human metastatic neuroendocrine tumour | dose not given | grade 2 asthenia incidence | 8%
CN1C(=O)[C@@H](Cc2ccc(O)cc2)NC(=O)CNC(=O)[C@H](Cc2ccc3ccccc3c2)NC(=O)[C@H](CCCNC(=N)N)NC(=O)[C@H]1CCCNC(=O)c1ccc(CNC(=O)CN2CCN(CC(=O)O)CCN(CC(=O)O)CCN(CC(=O)O)CC2)cc1 [gallium-68 labelled] | radio-TLC | human serum | 1 h, 37 °C | radiochemical purity | 99.01 ± 0.26%
CCCC[C@H](NC(=O)COCCOCCNC(=O)CN1CCN(CC(=O)O)CCN(CC(=O)O)CC1)C(=O)N[C@H]1CC(=O)NCCCC[C@@H](C(N)=O)NC(=O)[C@H](Cc2c[nH]c3ccccc23)NC(=O)[C@H](CCCNC(=N)N)NC(=O)[C@@H](Cc2ccccc2)NC(=O)[C@H](Cc2c[nH]cn2)NC1=O [copper-64 labelled] | – | C57 mice, brain | intravenous, 0.37 MBq, 0.5 h | tissue uptake | 0.24 ± 0.06 %ID/g
CC(C)C[C@@H]1NC(=O)[C@H]([C@@H](C)O)NC(=O)[C@H](Cc2ccccc2)NC(=O)CNC(=O)[C@H](Cc2c[nH]c3ccccc23)NC(=O)[C@H](Cc2c[nH]cn2)NC(=O)[C@H](C)NC(=O)[C@@H](NC(=O)[C@H](CCCCNC(=O)CCCCCN2C(=CC=C3CCCC(C=CC4=[N+](CCCCS(=O)(=O)[O-])c5ccc(S(=O)(=O)O)cc5C4(C)C)=C3Oc3ccc(S(=O)(=O)O)cc3)C(C)(C)c3cc(S(=O)(=O)O)ccc32)NC(=O)CN2CCN(CC(=O)O)CCN(CC(=O)O)CCN(CC(=O)O)CC2)CCCCNC(=O)C[C@@H](C(N)=O)NC1=O [gallium-68 labelled] | radio-HPLC | PBS | 3 h, room temperature | radiochemical purity | > 95%
CCCC[C@H](NC(=O)CCCCCCCNC(=O)CN1CCN(CC(=O)O)CCN(CC(=O)O)CC1)C(=O)N[C@H]1CC(=O)NCCCC[C@@H](C(N)=O)NC(=O)[C@H](Cc2c[nH]c3ccccc23)NC(=O)[C@H](CCCNC(=N)N)NC(=O)[C@@H](Cc2ccccc2)NC(=O)[C@H](Cc2c[nH]cn2)NC1=O [copper-64 labelled] | – | C57 mice, bone | intravenous, 0.37 MBq, 4 h | tissue uptake | 0.08 ± 0.1 %ID/g
C[C@H](NC(=O)CNC(=O)[C@H](CCC(=O)O)NC(=O)[C@H](CCC(=O)O)NC(=O)[C@H](CC(=O)O)NC(=O)[C@@H]1CCCN1C(=O)[C@H](Cc1ccccc1)NC(=O)[C@H](CS)NC(=O)[C@H](Cc1ccc(O)cc1)NC(=O)CCCNC(=O)CNC(=O)CNC(=O)[C@@H](C)NC(=O)CN)C(=O)N[C@@H](CS)C(=O)N[C@@H](Cc1ccc(O)cc1)C(N)=O [technetium-99m labelled] | paper chromatography | sealed vial | 4 h, room temperature | radiochemical purity | 93.3 ± 1.08%

Some of these lines once more:
SMILES | assay | test system | conditions | endpoint | result
CCCC[C@H](NC(=O)COCCOCCNC(=O)CN1CCN(CC(=O)O)CCN(CC(=O)O)CC1)C(=O)N[C@H]1CC(=O)NCCCC[C@@H](C(N)=O)NC(=O)[C@H](Cc2c[nH]c3ccccc23)NC(=O)[C@H](CCCNC(=N)N)NC(=O)[C@@H](Cc2ccccc2)NC(=O)[C@H](Cc2c[nH]cn2)NC1=O [copper-64 labelled] | – | C57 mice, brain | intravenous, 0.37 MBq, 0.5 h | tissue uptake | 0.24 ± 0.06 %ID/g
CC(C)C[C@@H]1NC(=O)[C@H]([C@@H](C)O)NC(=O)[C@H](Cc2ccccc2)NC(=O)CNC(=O)[C@H](Cc2c[nH]c3ccccc23)NC(=O)[C@H](Cc2c[nH]cn2)NC(=O)[C@H](C)NC(=O)[C@@H](NC(=O)[C@H](CCCCNC(=O)CCCCCN2C(=CC=C3CCCC(C=CC4=[N+](CCCCS(=O)(=O)[O-])c5ccc(S(=O)(=O)O)cc5C4(C)C)=C3Oc3ccc(S(=O)(=O)O)cc3)C(C)(C)c3cc(S(=O)(=O)O)ccc32)NC(=O)CN2CCN(CC(=O)O)CCN(CC(=O)O)CCN(CC(=O)O)CC2)CCCCNC(=O)C[C@@H](C(N)=O)NC1=O [gallium-68 labelled] | radio-HPLC | PBS | 3 h, room temperature | radiochemical purity | > 95%
